Published values pooled from the literature.
Numbered parts are unrelated; each lists some results of a single study.

Block 1
Target: Ras GTPase-activating protein-binding protein 1, RRM domain (G3BP1, Homo sapiens, UniProt Q13283)
UniProt Q13283, sequence (whole entry, looked up): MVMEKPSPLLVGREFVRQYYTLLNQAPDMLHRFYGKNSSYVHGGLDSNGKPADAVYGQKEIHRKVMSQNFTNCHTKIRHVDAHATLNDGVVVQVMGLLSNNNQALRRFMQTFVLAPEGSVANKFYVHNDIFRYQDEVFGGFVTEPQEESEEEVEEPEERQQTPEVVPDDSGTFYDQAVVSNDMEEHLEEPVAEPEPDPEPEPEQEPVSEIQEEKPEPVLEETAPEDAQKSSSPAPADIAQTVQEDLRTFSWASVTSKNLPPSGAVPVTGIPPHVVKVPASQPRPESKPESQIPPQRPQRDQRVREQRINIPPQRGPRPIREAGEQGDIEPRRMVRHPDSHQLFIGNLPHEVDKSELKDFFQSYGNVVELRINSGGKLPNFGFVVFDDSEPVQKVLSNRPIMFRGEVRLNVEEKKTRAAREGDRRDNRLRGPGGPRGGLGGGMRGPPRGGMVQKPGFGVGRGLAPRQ
Technique: RNA Bind-n-Seq
Molecule type: RNA
Medium: in vitro
Tested at: 1 µM
Setting: whole 134-nt RNA, ends assumed
With: 150 mM KCl
Reference: input library
Direction: higher = stronger binding
Shared flanks, not repeated: GGGAGUUCUACAGUCCGACGAUC … UGGAAUUCUCGGGUGUCAAGG
Sequence	log2 enrichment
GUCCUGUGCUACACAUCGUAUGUACCGAAUCGGGUUUUUUUGGGAAAAAAAGGGAGGGAAAGUAUUAUGUUACGCCGUUCGGAUCUGCAC	0.0913
UCCUGUGCUACACAUCGUAUGUACCGAAUCAAACCCCCAAAUUUUUAAAUUUUUUUAAAAAAGUAUUAUGUUACGCCGUUCGGAUCUGCA	-0.408
ACCAUGCAGGAGGGCAUCUUUGGGAAGUGGGGCAAGGGGGGGAUAGGGAGGGGGGUAACACUUUGGGAACAGGUGGUCCCAGGUCGUUUC	-0.566
UGGCCCUGGUGGCAUGCGGGGAGGAAGAGGUGGCCUCAUGGACCGUGGUGGUCCCGGUGGAAUGUUCAGAGGUGGCCGUGGUGGAGACAG	0.972
AGUCCUGUGCUACACAUCGUAUGUACCGAAUCGGGGAAAGGGGAAAAAGGGGUGGGGAAAGUAUUAUGUUACGCCGUUCGGAUCUGCACU	1.29
GUCCUGUGCUACACAUCGUAUGUACCGAAUCGGGGAAAAAGGGGAAAAAGGGGUGGGGAAAGUAUUAUGUUACGCCGUUCGGAUCUGCAC	1.02
UCCUGCCAACCUCUCUUAAUGCUCUGAGAGCCUCUGGUGUUGACAUAGAAGAGGAAACGGAGAAGAACCUGGAAAAGGUACAGACUAUCA	-0.252
ACCAUGCAGGUGGGCAUCUUUGGGAAGUGGGGCAAGGGGGGGAUAGGGAGGGGGGUAACACUUUGGGAACAGGUGGUCCCACGUCGUUUC	0.63
UGCACUGACUGGUGGUGUCAACCCAUGGCUCAACUGGAAGCACUGUGGAAGAAGAUGGAGGGUGUGGUAAGUCCAUCAGACCUGGGACCG	-0.12
ACCAUGCAGGUGGGCAUCUUUGGGAAGUGGGGCAAGGGGGGGAUAGGGAGGGGGGUAACACUUUGGGAACCGGUGGUCCCAGGUCGUUUC	0.624
AGUCCUGUGCUACACAUCGUAUGUACCGAAUCAAACCCCCAAAUUUUUAAACCCAAAAAAGUAUUAUGUUACGCCGUUCGGAUCUGCACU	-0.394
CUCAAGUCCUGUGCUACACAUCGUAUGUACCGAAUCGGUUUGGAAAAAGGAGGAAAGUAUUAUGUUACGCCGUUCGGAUCUGCACUUCCA	-0.173
CACAGACAACACGCACCCACACAGACACAGAGGGAAGGGGUUGGGAUGGGGACAGGGUGCCCAGCAGGGCGGGGUAGGACCCCAGCCCCU	0.057
GCAGGAAGUAAAAACAAAUGGAAAUGCUUCGGAUAGUGGCAGGGGUGGGGGUUGCUAAGGAAAGGGUGGGAUGGGAGUGGUUAAAGAGUU	1.27

Block 2
Target: RING finger protein unkempt homolog, zinc fingers 1-6, SBP tag (UNK, Homo sapiens, UniProt Q9C0B0, residues 30-357)
UniProt Q9C0B0, sequence (30-357, looked up): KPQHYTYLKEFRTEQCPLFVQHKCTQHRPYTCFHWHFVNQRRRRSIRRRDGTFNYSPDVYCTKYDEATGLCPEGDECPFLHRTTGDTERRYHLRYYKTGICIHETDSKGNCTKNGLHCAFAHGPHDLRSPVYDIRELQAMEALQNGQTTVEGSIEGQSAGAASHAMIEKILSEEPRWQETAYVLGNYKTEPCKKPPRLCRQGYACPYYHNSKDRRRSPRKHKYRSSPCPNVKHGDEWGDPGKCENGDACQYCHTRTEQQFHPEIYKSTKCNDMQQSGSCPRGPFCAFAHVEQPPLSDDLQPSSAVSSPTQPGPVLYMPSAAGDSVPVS
Technique: RNA Bind-n-Seq
Molecule type: RNA
Medium: in vitro
Tested at: 100 nM
Setting: RNA with constant flanks, vertebrate orthologous sites, ends assumed
Reference: input RNA pool
Direction: higher = stronger binding
Shared flanks, not repeated: GGGAGUUCUACAGUCCGACGAUC … CAACAGAGGAUUGAGCAUCA
Sequence	bound/input enrichment
GCAGUGAAAAAGCAGCCCUUCUCCCAGCCCCCUUUUCACUAGGAGAUACGAACGUUUCCGUAGAAGAGCAAUUAAACUCAAUAAAUUUAUCUUUUCAGGAUGAUCCAGAUUCCAGUACCA	1.11 ratio
UUACAGUCAUUGAUGGACUCUAUUUUUUUAUUAUUACUUGGACCUUGGUCGUUUUUAUACUAGCAAAAUGUCUUGUUUUAAUUUGUGUUUUUUGGGGGGGAGGGAGUGAACUUGCUGAUU	2.13 ratio
UGCUGUUAAAGCACUGUUUUCCAGGCAUUGUCUGAAUUUAGUGUAAUCUAGGAGAUUUUAUAGUCUUAUUUUAAUGAAGUUUGGAUUGAUGGCGAAGUUGUUAGCAUAGUCUUUUAUUCG	1.92 ratio
GCAAUGAAAAAACAGCCCUCCUCCCAGCCCCCAUUUCACUAGGAGAUGCAAACAUUACCAUAGAAGAGCAAUUUAACUCAAUAAAUUUAUCUUUUCAGGAUGAUCCAGACUCCAGUACCA	0.779 ratio
AUAGGAGCAGCAUAGGCUUUUUGAGCUUUGGGGAAAUGAGCUUUGUGUUUUAUAUUUAAAUGGGAUAUGUUUAUAUGAUGGGUGCUUUGAGUGUGAAUGCAGCAGGCUCUCCUCCAUUUU	1.26 ratio
UGUGCUUAUACUCUUCUAGGGAAGAGAGGAAUUGGGGAAAACUGUCCCCUUCUUAUAGAUUAGCUUGUUUCUAAAUUAUGACCAAAAAAUAUUUUGCUAUUUCUUUCUUUAUAUAUGAAC	1.43 ratio
GGAAAAAAUCAGUAGAAUUACAGAAUACUAAAGUUGAAAGGAUAUCCAAGUAUGUGUUGGUAGUUACUAAAAGAAAUAUAGCUGUUAUUGCCUUGUAUUUAUAGCUCUUGUUUCAGGUCU	0.51 ratio
AAUGGCCUCCAACAGGCAAAUUCAGGGAGAGAUAGGCUUCAGGGAAUAUAUAUUUAAGAGGAGUGAUCGUGAAGUAUAAGCUUGAUAUAACUGAAUAAUUUGUGAGGGGUGAUGACAUUU	0.917 ratio
GUAAUGCAUUUUGCGACUUGGAUGUGGUCUGCACGGGAAGCUGCUGGCCCCUCCACAACACAUACAAUUUUUGUCUUUUUUUUAAGAAAUUAAAACUGAAUUAAUUUACUAAAACUGUAA	0.253 ratio
GCUACAGGGAAAAGAGCUCACAAACUCAAAACUAUUAAAGAAGUUCUAAUAGUUAAAAGCUAGGAAAGAUUAGGACAAUUUUACAAAUGAGCAAUUAAAAAUAAAACAAAAGAAAAAGGA	1.12 ratio
GUCACGGGACACCGAAUGGAGAGAGAAGCAAAUCAAACCAGCAAAGGUUGGGUAAAAUUGCUGCCAUCUGCAUAAUGGCUAAGUUGCAGUCACUUUUCUGCGUAAAACCAGCUGUGUUUA	0.396 ratio

Block 3
Target: Interferon regulatory factor 7, full length, phosphomimetic (IRF7, Homo sapiens, UniProt Q92985, residues 1-503, S101K/S471D/S472D/S475D/S476D/S477D/S483D/S484D/S487D)
Technique: protein-binding microarray
Molecule type: double-stranded DNA, one strand shown
Medium: in vitro
Tested at: 250 nM
Setting: 60-bp whole probe
With: salmon DNA 0.4 mg/ml
Reference: random background probes
Direction: higher = stronger binding
Shared flanks, not repeated: GCCTAGCAC … GTCTTGATTCGCTTGACGCTGCTG
Residues (chain): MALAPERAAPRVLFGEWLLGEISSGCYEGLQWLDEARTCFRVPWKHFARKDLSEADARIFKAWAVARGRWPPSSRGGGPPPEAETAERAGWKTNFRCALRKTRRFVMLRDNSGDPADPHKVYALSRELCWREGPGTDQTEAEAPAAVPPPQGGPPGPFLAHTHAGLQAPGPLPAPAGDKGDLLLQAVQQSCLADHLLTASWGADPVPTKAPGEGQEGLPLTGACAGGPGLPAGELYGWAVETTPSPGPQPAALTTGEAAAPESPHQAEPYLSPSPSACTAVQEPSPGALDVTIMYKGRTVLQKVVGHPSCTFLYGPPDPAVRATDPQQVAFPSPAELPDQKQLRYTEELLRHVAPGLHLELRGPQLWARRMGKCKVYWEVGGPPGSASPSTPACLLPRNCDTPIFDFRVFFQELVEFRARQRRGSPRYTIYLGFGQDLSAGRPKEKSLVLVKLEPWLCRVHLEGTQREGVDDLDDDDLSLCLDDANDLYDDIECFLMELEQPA
Sequence	log fluorescence
TTAGATATCCTTATCCTTTAGTGCTAG	0.228 z-score
TGAGATTCCAGTTTCGATTAGTGCTAG	9.69 z-score
TTGGATATCAGTATCGATTAGTGCTAG	0.464 z-score
TTATGGTGTGGAGAAGGCACGTGCTAG	-0.953 z-score
GCCGGTATCGGACTGGGGACGTGCTAG	0.143 z-score
TTTGGTATCCTTATCCTTTAGTGCTAG	0.521 z-score
TTTCCTCTGTCATTTTCTCTGTGCTAG	2.66 z-score
TTAGATTTCAGTTTCGATTGGTGCTAG	10.4 z-score
ACTAGTTTCTTTTCTTTTCTGTGCTAG	7.8 z-score
TTTACTAGGAGTTTTCAGTCCGTGCTA	0.0889 z-score
GACGGTTTCCTTATCCTGAAGTGCTAG	3.46 z-score
TTGAGTTTTCCTTCATGTGCGTGCTAG	1.17 z-score
TTAGATTCCAGTTTCGATAAGTGCTAG	6.51 z-score
GCCGGTATCGACACTGGGGACGTGCTA	-0.27 z-score
TTAGCTATCGGTCTCGGTTAGTGCTAG	0.747 z-score
GGATTTCAGTTTCTCTTTCCGTGCTAG	6.46 z-score
GATGGTATCCTTTTCCTGACGTGCTAG	0.887 z-score

Block 4
Target: RNA binding protein fox-1 homolog 2, RRM domain, GST-SBP tag (RBFOX2, Homo sapiens, UniProt O43251-10, residues 100-194)
Technique: RNA Bind-n-Seq
Molecule type: RNA
Medium: in vitro
Tested at: 365 nM
Setting: natural RNA segment, single round, ends assumed
Reference: no-protein control
Direction: higher = stronger binding
Shared flanks, not repeated: GGGAGUUCUACAGUCCGACGAUC … UGGAAUUCUCGGGUGCCAA
Construct (chain): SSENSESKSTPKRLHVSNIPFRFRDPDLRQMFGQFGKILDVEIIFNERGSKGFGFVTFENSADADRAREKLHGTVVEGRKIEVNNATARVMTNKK
Sequence	RBNS enrichment (R)
GUUCUGCAGUGUAAUGGAGGACGGGCAACGUGCAUGUGCAGGCUCACCACUCCCAGGCCUCUGACAUGAGGGACAUGUGACAGUGUCAUUCAGUAUUAUGUUCAAAAGAC	3.16
GUUUCGUUACAUUUAGAUGAAAGUUAAACUUUACUGAAUUUCAGUACAUUAGUUUUUACACUAAAACUUUACAAGAUAAAAUUGGACUUCAUUUAGUAUCUUUUUAACAG	0.404
CUGGCUGAGGGGAGUGUCCAUCAUAUGAAAGGGAGACAGGAGAGGAAGCUCUCCGUUGUCUUUCAGUGAUACCCUCUUCCUUGCUUAAUUUGCUCUGAAAAGAAGCACAG	0.236
UCACUUUCCUAGGGCCUCCGUGAGGGCUGAGAACAGCUCUGCUCUGCUCCUGUAUUAUUAACUUGCUUCAGUUAACUGACUUGAGAAACUAACCAAUUUUUACCUUCUGC	0.578
GUUUUAUUCCUAUUUAAUGUUAUUGACUAUAGCAGAUUUUGGAAAUCAGUGUUUUCCAUGUGACCCUCUUUCCUUGCAUCCCUAUUCCUUGUCCCCCACCCACUCUUCCC	2.53
UCACUGGAGUGGCGUCUGCAGCAGCUGCUGCCCCAGCACCCGCUCAGCCUGUCCUGGCUGCUCACCUCCCCGCAGGGCACCGGGCCUUUCCUGCCCUCUGUGGUCAUCUG	0.199
GCUGCUGGAGAUUCAAAGCCCAACUGUGGGUCCGAGAGGGAAGCUGGCUGGGCUGGCUGAAGAAUGAAGACCACUGGACUCUCCGUUAAUCUCUAAGGGGUCUGCUCCCC	0.277
UGAGUUGUUGUUUUUUUUUAAAUGGGGGUAGUUUUCUAUCUGUCAUGGGCUCUAGCAUCUACUCCGCUACCCAAUUCUGUCAUCUCCAAGCUGAGUUUCCUCUUCUGAGG	0.353
AGGAUAGCCAGCUUGCUUCUCUGUUAUGUUACCAUGCAUUUCUAAAACCACUCCAGCUGUUAAUCUGUUUGCGCCUCCAUCCAUGGACUUGUUUCUGUUCUUUUCCAUCC	0.562
CCGUGGGGAGAGGUGAGUGGCAUUACAAGAAAUUUAGGCUUUAUUCAGAAGGCAACAGGGAGUCCCUAAGAAUGUUUUUCAAAAAGGGACAUUAAGGCGAUUGGAGUUAU	0.902
CUCGUGAUCUUAAAAGGCAUUCUGAUGAUAAAUUUAGAAUUUUCAUCUAUAAAAUUUAGAACUCUAAUCCAUAAAGUUAGAAUUGAGCUAAUAGAGUGGUAUGACAUGGC	0.489
GUCCCCCAUUCCUAGGCCUAACCUUGCUUGAACAGGGUUGGGCAAAGCUGCGGUAUUAUUGGUUGAGAGGCGUCUUCUCACCUCUGGCUGAGAGCACUGGUGGGUUUGCA	6.1

For quick reference, copied from above (block 3):
Sequence	log fluorescence
TTAGATTTCAGTTTCGATTGGTGCTAG	10.4 z-score
TTGGATATCAGTATCGATTAGTGCTAG	0.464 z-score
TTTACTAGGAGTTTTCAGTCCGTGCTA	0.0889 z-score
GCCGGTATCGACACTGGGGACGTGCTA	-0.27 z-score
GCCGGTATCGGACTGGGGACGTGCTAG	0.143 z-score
TTAGCTATCGGTCTCGGTTAGTGCTAG	0.747 z-score
TTGAGTTTTCCTTCATGTGCGTGCTAG	1.17 z-score
